Experimental data pooled from the literature.
Protocols differ between the studies behind these lines. ± gives the spread as reported.
KLRK1 with ULBP6: NKG2-D type II integral membrane protein, with ULBP6 (KLRK1, Homo sapiens, UniProt P26718)
Sequence of UniProt P26718 (whole entry, looked up): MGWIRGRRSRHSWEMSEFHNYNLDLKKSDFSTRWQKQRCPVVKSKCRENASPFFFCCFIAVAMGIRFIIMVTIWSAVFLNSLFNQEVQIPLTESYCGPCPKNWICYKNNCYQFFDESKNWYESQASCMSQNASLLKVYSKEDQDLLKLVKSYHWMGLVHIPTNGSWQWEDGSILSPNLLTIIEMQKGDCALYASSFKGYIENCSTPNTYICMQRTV
Metallo-beta-lactamase type 2: Metallo-beta-lactamase type 2 (Serratia marcescens, UniProt P52699)
Sequence of UniProt Q920B6 (whole entry, unmodified, looked up): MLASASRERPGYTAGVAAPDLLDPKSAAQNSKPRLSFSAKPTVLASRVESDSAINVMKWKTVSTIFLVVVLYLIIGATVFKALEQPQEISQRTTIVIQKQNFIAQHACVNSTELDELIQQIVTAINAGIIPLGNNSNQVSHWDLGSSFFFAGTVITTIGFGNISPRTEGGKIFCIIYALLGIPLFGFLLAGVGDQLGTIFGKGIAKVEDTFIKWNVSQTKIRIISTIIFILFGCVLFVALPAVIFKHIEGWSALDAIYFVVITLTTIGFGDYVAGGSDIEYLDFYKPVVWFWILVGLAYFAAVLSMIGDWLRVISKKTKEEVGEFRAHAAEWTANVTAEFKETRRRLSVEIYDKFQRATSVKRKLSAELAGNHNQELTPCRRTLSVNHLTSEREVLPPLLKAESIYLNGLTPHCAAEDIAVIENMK
Sequence of UniProt Q9NUW8 (whole entry, looked up): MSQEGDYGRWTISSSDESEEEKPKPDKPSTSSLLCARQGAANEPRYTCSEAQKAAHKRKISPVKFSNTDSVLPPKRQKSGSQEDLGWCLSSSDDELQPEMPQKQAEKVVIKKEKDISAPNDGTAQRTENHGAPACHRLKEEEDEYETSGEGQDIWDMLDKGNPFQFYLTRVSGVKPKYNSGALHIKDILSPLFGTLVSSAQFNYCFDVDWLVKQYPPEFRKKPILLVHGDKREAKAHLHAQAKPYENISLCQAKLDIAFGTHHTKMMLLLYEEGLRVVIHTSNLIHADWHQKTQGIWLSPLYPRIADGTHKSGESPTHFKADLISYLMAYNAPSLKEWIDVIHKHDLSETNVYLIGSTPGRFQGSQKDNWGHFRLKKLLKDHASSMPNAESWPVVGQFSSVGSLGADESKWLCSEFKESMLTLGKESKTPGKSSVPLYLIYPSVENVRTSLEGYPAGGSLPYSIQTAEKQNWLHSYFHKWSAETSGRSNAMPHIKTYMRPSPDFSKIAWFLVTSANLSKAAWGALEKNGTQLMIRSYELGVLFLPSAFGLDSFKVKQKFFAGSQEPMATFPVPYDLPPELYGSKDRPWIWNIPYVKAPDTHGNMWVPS
Sequence of UniProt P34897 (whole entry, looked up): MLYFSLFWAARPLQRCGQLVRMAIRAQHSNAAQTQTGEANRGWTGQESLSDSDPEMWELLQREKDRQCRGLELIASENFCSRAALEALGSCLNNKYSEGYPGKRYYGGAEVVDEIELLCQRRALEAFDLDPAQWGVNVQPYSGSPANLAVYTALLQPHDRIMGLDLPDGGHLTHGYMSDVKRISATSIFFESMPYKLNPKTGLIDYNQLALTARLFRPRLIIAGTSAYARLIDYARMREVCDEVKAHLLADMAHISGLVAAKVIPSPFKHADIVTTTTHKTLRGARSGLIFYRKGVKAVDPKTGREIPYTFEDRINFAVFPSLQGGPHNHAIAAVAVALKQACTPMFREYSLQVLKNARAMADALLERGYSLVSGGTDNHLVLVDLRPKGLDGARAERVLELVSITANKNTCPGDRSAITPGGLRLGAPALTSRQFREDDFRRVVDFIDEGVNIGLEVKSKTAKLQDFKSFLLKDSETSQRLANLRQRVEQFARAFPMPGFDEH
Sequence of UniProt P05067 (whole entry, looked up): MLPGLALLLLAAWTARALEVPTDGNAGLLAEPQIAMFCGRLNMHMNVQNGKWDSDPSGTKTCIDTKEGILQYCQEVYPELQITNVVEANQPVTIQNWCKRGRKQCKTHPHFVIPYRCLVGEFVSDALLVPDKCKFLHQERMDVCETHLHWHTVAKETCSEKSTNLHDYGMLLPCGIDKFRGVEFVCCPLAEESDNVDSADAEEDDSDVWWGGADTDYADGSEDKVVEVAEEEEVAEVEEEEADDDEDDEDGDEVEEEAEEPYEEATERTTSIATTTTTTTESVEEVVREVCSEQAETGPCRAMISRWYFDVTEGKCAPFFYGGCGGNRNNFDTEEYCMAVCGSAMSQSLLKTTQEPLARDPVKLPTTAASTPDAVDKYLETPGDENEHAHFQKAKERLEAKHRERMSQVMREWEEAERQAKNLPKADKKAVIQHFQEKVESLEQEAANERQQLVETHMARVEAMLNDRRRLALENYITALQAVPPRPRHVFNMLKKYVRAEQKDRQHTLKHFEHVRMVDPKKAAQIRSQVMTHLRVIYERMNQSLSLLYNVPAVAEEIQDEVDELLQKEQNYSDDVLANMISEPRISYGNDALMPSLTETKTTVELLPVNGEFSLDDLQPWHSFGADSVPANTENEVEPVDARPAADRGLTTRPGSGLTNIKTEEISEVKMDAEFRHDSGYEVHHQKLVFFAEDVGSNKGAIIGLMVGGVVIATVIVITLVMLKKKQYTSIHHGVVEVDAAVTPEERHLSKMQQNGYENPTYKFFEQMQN
Sequence of UniProt O15294 (whole entry, looked up): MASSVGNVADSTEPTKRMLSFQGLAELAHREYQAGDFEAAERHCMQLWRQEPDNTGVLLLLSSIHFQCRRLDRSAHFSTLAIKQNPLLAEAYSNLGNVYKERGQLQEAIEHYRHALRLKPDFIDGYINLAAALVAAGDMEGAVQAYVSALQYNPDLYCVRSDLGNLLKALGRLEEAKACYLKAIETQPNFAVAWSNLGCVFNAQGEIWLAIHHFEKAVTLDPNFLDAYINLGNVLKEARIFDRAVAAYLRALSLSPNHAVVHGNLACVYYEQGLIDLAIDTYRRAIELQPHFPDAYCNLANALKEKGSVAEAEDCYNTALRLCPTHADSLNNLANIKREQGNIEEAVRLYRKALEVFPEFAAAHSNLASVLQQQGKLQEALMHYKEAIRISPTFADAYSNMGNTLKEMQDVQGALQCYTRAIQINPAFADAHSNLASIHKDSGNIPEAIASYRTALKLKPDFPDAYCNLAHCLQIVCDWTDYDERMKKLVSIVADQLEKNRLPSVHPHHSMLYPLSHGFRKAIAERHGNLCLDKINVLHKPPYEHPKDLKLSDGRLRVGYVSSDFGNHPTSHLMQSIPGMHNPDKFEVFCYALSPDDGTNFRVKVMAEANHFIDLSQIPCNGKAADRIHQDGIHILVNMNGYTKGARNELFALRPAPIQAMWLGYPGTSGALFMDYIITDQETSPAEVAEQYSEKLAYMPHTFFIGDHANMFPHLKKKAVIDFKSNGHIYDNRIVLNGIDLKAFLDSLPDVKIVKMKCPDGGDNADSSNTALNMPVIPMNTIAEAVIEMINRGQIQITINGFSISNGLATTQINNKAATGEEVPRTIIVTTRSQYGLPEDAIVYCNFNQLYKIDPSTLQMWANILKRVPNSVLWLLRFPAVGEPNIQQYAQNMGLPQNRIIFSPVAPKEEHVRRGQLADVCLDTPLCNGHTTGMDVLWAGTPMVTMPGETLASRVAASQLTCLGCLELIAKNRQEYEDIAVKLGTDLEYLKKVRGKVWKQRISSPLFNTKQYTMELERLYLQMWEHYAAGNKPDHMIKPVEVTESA
Sequence of UniProt P32300 (whole entry, looked up): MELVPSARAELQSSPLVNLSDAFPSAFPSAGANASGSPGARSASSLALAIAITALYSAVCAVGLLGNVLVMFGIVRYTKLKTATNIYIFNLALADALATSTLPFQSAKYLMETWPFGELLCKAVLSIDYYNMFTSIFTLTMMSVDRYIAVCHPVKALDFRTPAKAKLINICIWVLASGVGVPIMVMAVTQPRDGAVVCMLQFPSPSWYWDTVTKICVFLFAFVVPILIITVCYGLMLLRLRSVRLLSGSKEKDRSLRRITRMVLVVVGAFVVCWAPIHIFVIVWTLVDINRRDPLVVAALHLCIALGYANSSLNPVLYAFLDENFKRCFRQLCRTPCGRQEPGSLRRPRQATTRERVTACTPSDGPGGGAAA
Sequence of UniProt Q86TU7 (whole entry, looked up): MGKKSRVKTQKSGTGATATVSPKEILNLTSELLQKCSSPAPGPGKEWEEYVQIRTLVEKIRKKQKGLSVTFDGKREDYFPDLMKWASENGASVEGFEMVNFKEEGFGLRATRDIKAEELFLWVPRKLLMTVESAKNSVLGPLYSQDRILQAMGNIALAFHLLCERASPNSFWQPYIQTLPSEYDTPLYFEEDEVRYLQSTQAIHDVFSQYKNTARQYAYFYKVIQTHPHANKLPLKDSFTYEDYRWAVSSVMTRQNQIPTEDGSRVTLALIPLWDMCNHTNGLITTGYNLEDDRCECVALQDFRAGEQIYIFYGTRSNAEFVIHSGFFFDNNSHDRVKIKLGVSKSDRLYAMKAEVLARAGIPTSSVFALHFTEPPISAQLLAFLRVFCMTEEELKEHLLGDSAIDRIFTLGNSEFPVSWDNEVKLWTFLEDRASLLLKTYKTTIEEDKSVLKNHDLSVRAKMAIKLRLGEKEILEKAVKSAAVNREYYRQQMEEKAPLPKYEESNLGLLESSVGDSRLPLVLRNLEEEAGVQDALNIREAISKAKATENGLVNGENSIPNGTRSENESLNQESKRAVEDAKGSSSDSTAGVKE
Sequence of UniProt Q7Z5W3 (whole entry, looked up): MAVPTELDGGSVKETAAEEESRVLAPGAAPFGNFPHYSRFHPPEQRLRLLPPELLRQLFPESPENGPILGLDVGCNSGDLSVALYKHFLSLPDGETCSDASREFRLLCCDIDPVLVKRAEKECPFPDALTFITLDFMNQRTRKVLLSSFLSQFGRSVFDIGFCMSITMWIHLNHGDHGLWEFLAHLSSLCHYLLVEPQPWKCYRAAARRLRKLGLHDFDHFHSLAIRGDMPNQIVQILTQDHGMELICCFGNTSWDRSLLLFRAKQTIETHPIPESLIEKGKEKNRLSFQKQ

SMILES | target | test | system | conditions | IC50 [µM]
Nc1ccc(C[C@H](NC(=O)[C@H](Cc2ccccc2)NC(=O)[C@@H]2Cc3ccccc3CN2C(=O)[C@@H](N)Cc2ccc(O)cc2)C(=O)N[C@@H](CC(=O)O)C(=O)NCCOCCOCCNC(=O)CCCC[C@@H]2SC[C@@H]3NC(=O)N[C@@H]32)cc1 | Oprd1 (Mus musculus, UniProt P32300) | ligand displacement, radioligand |  |  | 0.0333
CNC(=O)NC(=N)NCCC[C@@H]1NC(=O)[C@@H](C)NC(=O)C[C@@H](C(=O)O)NC(=O)C[C@@H](C(=O)O)NC(=O)[C@H](Cc2ccccc2)NC1=O | Endochitinase B1 (Aspergillus fumigatus, UniProt Q873X9) | enzyme activity, inhibitor, fluorometric |  | 10 min, pH 5.5, 37 °C, together with: 20 µM 4-MU-chitobiose | 60
CC[C@H](C)[C@@H]1NC(=O)[C@H](Cc2ccc(O)cc2)NC(=O)[C@H](CC(N)=O)NC(=O)[C@H](CCC(N)=O)NC(=O)[C@@H]2CSSC[C@@H]3NC(=O)[C@H](CCC(=O)O)NC(=O)[C@H](Cc4c[nH]c5ccccc45)NC(=O)[C@@H]4CCCN4C(=O)[C@@H]4CCCN4C(=O)[C@@H]4CCCN4C(=O)[C@H](CCC(N)=O)NC(=O)[C@H](CC(C)C)NC(=O)[C@H](CCC(=O)O)NC(=O)[C@H](Cc4ccccc4)NC(=O)[C@H](CO)NC(=O)[C@H](Cc4ccc(O)cc4)NC(=O)[C@H](CO)NC(=O)CNC(=O)[C@H](CCCNC(=N)N)NC(=O)CNC(=O)[C@H](Cc4ccccc4)NC(=O)[C@H](CSSC[C@@H](C(=O)O)NC(=O)[C@H](CCC(N)=O)NC(=O)[C@H](Cc4ccc(O)cc4)NC3=O)NC(=O)[C@H](CSSC[C@H](NC(=O)[C@H](Cc3ccccc3)NC(=O)[C@H](C)NC(=O)[C@H](CCC(=O)O)NC(=O)[C@@H]3CCC(=O)N3)C(=O)N[C@@H](Cc3ccccc3)C(=O)N[C@@H](CO)C(=O)N[C@@H](CC(=O)O)C(=O)N[C@@H](CCCNC(=N)N)C(=O)N[C@@H](Cc3ccccc3)C(=O)N2)NC(=O)[C@H](CC(=O)O)NC(=O)[C@@H]2CCCN2C(=O)[C@H]([C@@H](C)CC)NC(=O)[C@H](CO)NC(=O)CNC1=O | TDP1 (Homo sapiens, UniProt Q9NUW8) | enzyme activity, inhibitor, FRET |  | pH 7.4 | > 10
CN(C)C(=O)[C@@H](NC(=O)c1cnccc1-c1ccc(C(F)(F)F)cc1)c1cccc(C(F)(F)F)c1 | KLRK1 with ULBP6 | ligand binding, inhibitor, TR-FRET | HEK293 expressing NKG2D and DAP10 | together with: ULBP6-AF647 | 1.4 ± 0.2
CC(=O)N[C@@H](CCCNC(=N)N)C(=O)N[C@H](C(=O)N1CCC[C@H]1C(=O)N[C@@H](COP(=O)(O)O)C(=O)N[C@@H](CC(C)C)C(=O)N1CCC[C@H]1C(=O)NCC(=O)N1CCC[C@H]1C(c1ccccc1)c1ccccc1)[C@@H](C)O | YWHAZ (Homo sapiens, UniProt P63104) | peptide binding, inhibitor, competitive fluorescence polarization |  | 10 µM protein, together with: 100 nM FAM-labelled diphosphorylated Tau peptide | 5.9
C[C@H](CCC(=O)NCCC(=O)O)[C@H]1CC[C@H]2[C@@H]3CC[C@@H]4C[C@H](O)CC[C@]4(C)[C@H]3C[C@H](O)[C@]12C | SHMT2 (Homo sapiens, UniProt P34897) | serine to glycine conversion, inhibitor |  | pH 7.5, 1% DMSO, together with: L-serine 1 mM, THF 0.2 mM | 0.24
CCn1nc(-c2ccccc2)nc2c(=O)n(C)c(=O)nc1-2 | TPR (Trypanosoma brucei brucei, UniProt P39051) | inhibitor, DTNB-coupled colourimetric |  | together with: substrate at Km | 11.3
NC(=O)C1CN1S(=O)(=O)c1ccccc1 (centres unmarked) | PDIA3 (Homo sapiens, UniProt P30101) | enzyme activity, inhibitor, absorbance |  | pH 7.6 | 9.3
O=C(O)c1nccn1Cc1ccccc1 | Metallo-beta-lactamase type 2 | inhibitor |  | 10 min preincubation, together with: FC5 fluorogenic substrate | 15.2
CC(C)C[C@H](NC(=O)[C@@H](CCCCN)NC(=O)[C@H](Cc1c[nH]cn1)NC(=O)[C@H](CO)NC(=O)[C@H](Cc1c[nH]c2ccccc12)NC(=O)[C@H](Cc1c[nH]cn1)NC(=O)[C@@H]1CCC(=O)N1)C(=O)N[C@@H](CCCNC(=N)N)C(=O)N1CCC[C@H]1C(=O)NCC(N)=O | Gonadotropin-releasing hormone receptor (Rattus norvegicus, UniProt P30969) | binding, radioligand displacement | WPE-1-NB26-3 expressing Gonadotropin-releasing hormone receptor, whole cells | together with: radioiodinated GnRH analogue | 0.0051 ± 0.0003
COc1ccccc1C(NS(=O)(=O)c1cc2ccc(O)nc2cc1Cl)C(=O)N(CC(=O)NCCn1cc(COCCOCCNc2cccc3c2C(=O)N(C2CCC(=O)NC2=O)C3=O)nn1)Cc1cccs1 (mixture of isomers) | OGT (Homo sapiens, UniProt O15294) | enzyme activity, inhibitor, fluorescence |  |  | 0.77
Nc1ncnc2c1ncn2[C@@H]1O[C@H](CSCCNC(=O)NCCc2ccccc2)[C@@H](O)[C@H]1O | Actin-histidine N-methyltransferase (SETD3, Homo sapiens, UniProt Q86TU7) | enzyme activity, inhibitor, radiometric |  |  | > 50
N[C@@H](CN[C@@H](CN[C@@H](CC(=O)O)C(=O)O)C(=O)O)C(=O)O | blaNDM-1 (Klebsiella pneumoniae, UniProt C7C422) | enzyme activity, inhibitor |  | Zn2+-depleted enzyme | 12800 ± 722
CC(C)(C)c1ccc(NC(=O)NCCC[C@H](CNCc2ccccc2)C[C@H]2O[C@@H](n3cnc4c(N)ncnc43)[C@H](O)[C@@H]2O)cc1 | BCDIN3D (Homo sapiens, UniProt Q7Z5W3) | enzyme activity, inhibitor, radiometric |  |  | > 50
CC[C@H](C)[C@@H]1NC(=O)[C@H](C)NC(=O)[C@H](CC(C)C)NC(=O)[C@H](Cc2ccc(O)cc2)NC(=O)[C@H](CCCNC(=N)N)NC(=O)CNC(=O)[C@H](CC(N)=O)NC(=O)[C@H](CC(C)C)NC(=O)[C@H]([C@@H](C)CC)NC(=O)[C@H](Cc2ccccc2)NC(=O)[C@H](C)NC(=O)[C@H]([C@@H](C)CC)NC(=O)[C@H]([C@@H](C)O)NC(=O)[C@@H](Cc2ccc(O)cc2)NC(=O)CSC[C@@H](C(=O)NCC(N)=O)NC(=O)[C@H](CCCNC(=N)N)NC(=O)[C@H](C(C)C)NC1=O | NNMT (Homo sapiens, UniProt P40261) | enzyme activity, inhibitor, mass spectrometry |  |  | 1.21
CCCCC[N+](CCCCC)(CCCCC)CCCCC | Kcnk2 (Rattus norvegicus, UniProt Q920B6, T266C) | ion current, inhibitor, inside-out patch clamp |  |  | 102 ± 9
COc1c(C(=O)/C=C(\O)c2ccccc2)ccc2c1C=CC(C)(C)O2 | APP (Homo sapiens, UniProt P05067) | amyloid aggregation, inhibitor, fluorescence |  |  | > 200
COc1ccc(-c2ccc(OC)c(NC(=O)[C@H](C)CS)c2)nn1 | Metallo-beta-lactamase type 2 | inhibitor |  | 10 min preincubation, together with: FC5 substrate | 1.56
CN(C)C(=O)[C@H]1NC(=O)c2cnccc2-c2ccc(cc2)C(F)(F)CCCC(F)(F)c2cccc1c2 | KLRK1 with ULBP6 | ligand binding, inhibitor, TR-FRET | HEK293 expressing NKG2D and DAP10 | together with: ULBP6-AF647 | 4.5 ± 0.5
CC[N+](CC)(CC)CC | Potassium channel protein kcv, one L70A, three L70Y (A250R, Paramecium bursaria Chlorella virus 1, UniProt Q84568, L70A/L70Y) |  |  |  | 1800 ± 200
CCCn1nnc(-c2cccc(NC(=O)[C@H](C)CS)c2)n1 | Metallo-beta-lactamase type 2 | inhibitor |  | 10 min preincubation, together with: FC5 substrate | 1.23
CC12CC(O)C3C(CCC4(O)CC(O)CC(O)C34CO)C1(O)CCC2C1=CC(=O)OC1 (centres unmarked) | porcine Na+/K+-ATPase | enzyme activity, colorimetric phosphate release |  |  | 0.669
NC[C@@H]1O[C@H](O[C@H]2[C@@H](O)[C@H](O[C@@H]3[C@@H](O)[C@H](N)C[C@H](N)[C@H]3O[C@H]3O[C@H](CN)[C@@H](O)[C@H](O)[C@H]3N)O[C@@H]2Cn2cc(CCCCCCc3cn(C[C@H]4O[C@@H](O[C@@H]5[C@@H](O)[C@H](N)C[C@H](N)[C@H]5O[C@H]5O[C@H](CN)[C@@H](O)[C@H](O)[C@H]5N)[C@H](O)[C@@H]4O[C@H]4O[C@@H](CN)[C@@H](O)[C@H](O)[C@H]4N)nn3)nn2)[C@H](N)[C@@H](O)[C@@H]1O | HIV-1 TAR RNA | ethidium displacement |  | pH 6.8 | 0.097

Excerpt of the above:
SMILES | target | test | system | conditions | IC50 [µM]
CNC(=O)NC(=N)NCCC[C@@H]1NC(=O)[C@@H](C)NC(=O)C[C@@H](C(=O)O)NC(=O)C[C@@H](C(=O)O)NC(=O)[C@H](Cc2ccccc2)NC1=O | Endochitinase B1 (Aspergillus fumigatus, UniProt Q873X9) | enzyme activity, inhibitor, fluorometric |  | 10 min, pH 5.5, 37 °C, together with: 20 µM 4-MU-chitobiose | 60
CC[C@H](C)[C@@H]1NC(=O)[C@H](Cc2ccc(O)cc2)NC(=O)[C@H](CC(N)=O)NC(=O)[C@H](CCC(N)=O)NC(=O)[C@@H]2CSSC[C@@H]3NC(=O)[C@H](CCC(=O)O)NC(=O)[C@H](Cc4c[nH]c5ccccc45)NC(=O)[C@@H]4CCCN4C(=O)[C@@H]4CCCN4C(=O)[C@@H]4CCCN4C(=O)[C@H](CCC(N)=O)NC(=O)[C@H](CC(C)C)NC(=O)[C@H](CCC(=O)O)NC(=O)[C@H](Cc4ccccc4)NC(=O)[C@H](CO)NC(=O)[C@H](Cc4ccc(O)cc4)NC(=O)[C@H](CO)NC(=O)CNC(=O)[C@H](CCCNC(=N)N)NC(=O)CNC(=O)[C@H](Cc4ccccc4)NC(=O)[C@H](CSSC[C@@H](C(=O)O)NC(=O)[C@H](CCC(N)=O)NC(=O)[C@H](Cc4ccc(O)cc4)NC3=O)NC(=O)[C@H](CSSC[C@H](NC(=O)[C@H](Cc3ccccc3)NC(=O)[C@H](C)NC(=O)[C@H](CCC(=O)O)NC(=O)[C@@H]3CCC(=O)N3)C(=O)N[C@@H](Cc3ccccc3)C(=O)N[C@@H](CO)C(=O)N[C@@H](CC(=O)O)C(=O)N[C@@H](CCCNC(=N)N)C(=O)N[C@@H](Cc3ccccc3)C(=O)N2)NC(=O)[C@H](CC(=O)O)NC(=O)[C@@H]2CCCN2C(=O)[C@H]([C@@H](C)CC)NC(=O)[C@H](CO)NC(=O)CNC1=O | TDP1 (Homo sapiens, UniProt Q9NUW8) | enzyme activity, inhibitor, FRET |  | pH 7.4 | > 10
